Results gathered from unrelated publications.
Protocols differ between the studies behind these lines.
Target: 5-hydroxytryptamine receptor 1A (HTR1A, Homo sapiens, UniProt P08908)
Chain of UniProt P08908 (whole entry, looked up): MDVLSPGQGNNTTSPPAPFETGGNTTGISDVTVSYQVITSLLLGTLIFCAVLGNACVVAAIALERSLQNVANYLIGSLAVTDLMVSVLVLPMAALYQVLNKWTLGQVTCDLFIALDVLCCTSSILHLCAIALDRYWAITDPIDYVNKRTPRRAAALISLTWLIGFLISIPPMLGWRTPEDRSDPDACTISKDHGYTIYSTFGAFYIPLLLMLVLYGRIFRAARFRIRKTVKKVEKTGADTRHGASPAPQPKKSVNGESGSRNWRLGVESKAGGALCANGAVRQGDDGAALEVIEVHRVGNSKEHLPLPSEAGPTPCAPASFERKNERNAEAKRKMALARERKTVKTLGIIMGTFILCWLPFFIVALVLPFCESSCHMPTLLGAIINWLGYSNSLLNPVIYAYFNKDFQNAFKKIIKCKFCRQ

Structure (SMILES)	assay	system	setting	inhibition [%]
c1ccc(OC[C@H]2CN(CCN3CCc4ccccc43)CCO2)nc1	radioligand binding		concentration not given, with: [3H]8-OH-DPAT	51.7
Cn1ccc2cc(-n3c(=O)[nH]c4sc5c(c4c3=O)CCCC5)ccc21	ligand displacement, radioligand		10 µM	3
O=C1c2sc(-c3ccc(N4CCC(F)C4)nc3F)nc2CCN1c1cccnc1 (centres unmarked)	ligand displacement, radioligand		1 µM	-32
C[Si]1(C[C@H](CN)CC(=O)O)CCCC1	ligand displacement, radioligand		70 µM	-3
COc1ncc2nc(C)n(Cc3ncc(S(N)(=O)=O)cc3F)c2c1-c1ccccc1	antagonist, cell-based		10 µM	13.6
COc1ccc(S(=O)(=O)N2CCc3ccccc3C2)cc1N1CCN(C(=O)c2ccc(F)cc2C(F)(F)F)CC1	ligand displacement, radioligand		1 µM	-2.1
C[Si](C)(C)C[C@H](CN)CC(=O)O	ligand displacement, radioligand		250 µM	3
CC1Cc2ccccc2N1C(=O)CN1CCN(c2ccccc2)CC1 (centres unmarked)	radioligand binding		concentration not given, with: [3H]8-OH-DPAT	56.5
CC(C)Cn1c(SCC(=O)N2CCc3ccccc3C2)nc2cc(Cl)ccc2c1=O	ligand displacement, radioligand		10 µM	-9
CNC(=O)C[C@H](Cc1ccc(C#N)cc1)NC(=O)c1cc(-c2ccc(CN[C@H](C)c3ccc(C)cc3)o2)ccc1Cl	agonist response, antagonist	human cells	10 µM, 5-HT1A antagonist	20
CC1Cc2ccccc2N1C(=O)CN1CCN(Cc2ccccc2)CC1 (centres unmarked)	radioligand binding		concentration not given, with: [3H]8-OH-DPAT	55.8

Some of these lines once more:
Structure (SMILES)	assay	system	setting	inhibition [%]
COc1ccc(S(=O)(=O)N2CCc3ccccc3C2)cc1N1CCN(C(=O)c2ccc(F)cc2C(F)(F)F)CC1	ligand displacement, radioligand		1 µM	-2.1
